# Published values collected from several papers.
# Values joined by “and” are separate records of one study, mostly repeats; a detail may differ. ± gives the spread as reported.
# Cell line: MCF7
Compound,test,conditions,how to read,endpoint,value
COc1c(CCC[P+](c2ccccc2)(c2ccccc2)c2ccccc2)cc2c(c1OC)OCO2.[I-],SRB,,,GI50,-5.95 log M
CCN(CC)c1ccc(C=NNC(=O)CSc2nc3ccccc3c(=O)n2Cc2ccc(S(N)(=O)=O)cc2)c(O)c1,NCI five-dose screen,,,CC50,> 100 µM
O=c1ccc2cc(O)ccc2[nH]1,,72 h,,IC50,> 200 µM
O=C1CCCCC1=C1Sc2nc3ccc(S(=O)(=O)N4CCCC4)cc3nc2S1,"qRT-PCR, measured: p53","concentration not given, unit not given",baseline: untreated,mRNA level,4.98
COc1cc(CCC[P+](c2ccccc2)(c2ccccc2)c2ccccc2)c(OC)c2c1OCO2.[I-],SRB,,,LC50,> -4 log M
C/C1=C/C(=O)O[C@@H]2C[C@@H](CC[C@H](C)/C=C\C=C\CC1)O[C@@](O)([C@@H]1CSC(=O)N1CO)C2,,concentration not given,baseline: 1,antiproliferative activity fold increase,4 fold
C[C@H]1[C@H](C)CC[C@]2(C(=O)O)CC[C@]3(C)C(=CC[C@@H]4[C@@]5(C)CC[C@H](O)C(C)(C)[C@@H]5CC[C@]43C)[C@H]12,"cell growth, MTT","50 µg/mL, 48 h",,cell survival,33.98 ± 0.16%
Oc1cccc2cccnc12,,"concentration not given, 72 h",,IC50,> 200 µM
CN1CCN(C2(CNC3CCN(c4cccc(-c5cc6cc(F)ccc6[nH]5)c4)CC3)CCC2)CC1,,,,GI50,1.24 µM
COc1ccc(-n2nc(C(C)=O)s/c2=N\N=C(/C)c2ccc(NC(C)=O)cc2)cc1,,10 µM,,viability,6.73%
CC1(C(=O)Nc2ccc(O)c(Cl)c2Cl)CCCCC1,qRT-PCR,"concentration not given, 4 h",,basal RARβ2 mRNA level,decreased
CC[C@@H](C)[C@@H](NC(=O)[C@@H](Cc1c[nH]c2ccccc12)NC(=O)[C@@H](CCCNC(=N)N)NC(=O)[C@H](CCC(N)=O)NC(=O)[C@@H]1CCCN1C(=O)[C@H](CCCNC(=N)N)NC(=O)[C@H](CCCNC(=N)N)NC(=O)[C@H](CCCNC(=N)N)NC(=O)[C@H](CCC(N)=O)NC(=O)[C@H](CCCNC(=N)N)NC(=O)[C@H](CCCNC(=N)N)NC(=O)[C@H](CCCCN)NC(=O)[C@H](CCCCN)NC(=O)[C@H](CCCNC(=N)N)NC(=O)CN)C(=O)N[C@H](CCSC)C(=O)N[C@H](Cc1ccc(O)cc1)C(=O)N[C@H](Cc1ccccc1)C(N)=O,MTT,,,sublethal dose,2 µM
CC(C)N1CCC(NC2CCN(c3cccc(-c4cc5cc(F)ccc5[nH]4)c3)CC2)CC1,,,,CC50,6.34 µM
CC(=NNC(=O)c1cccc(C)c1)c1ccc(NC(=O)Cn2c(=O)c3c(ncn3C)n(C)c2=O)cc1,"qRT-PCR, measured: IL-2","4.85 µM, 24 h",baseline: untreated,mRNA level,0.42 fold change
N.N.[Cl][Pt][Cl],,dark,baseline: IC50 MCF-10A over IC50 MCF7,selectivity ratio,1.7
CC(C)=CCc1c(O)cc(O)cc1-c1cc2ccc(O)c(CC=C(C)C)c2o1,"cell growth, MTT","1.8 µg/mL, 48 h",,cell survival,94.14 ± 0.76%
C[C@]12CC[C@H](O)C[C@H]1CC[C@@H]1[C@@H]2CC[C@]2(C)[C@@H](c3ccc(=O)oc3)CC[C@]12O,"RT-qPCR, measured: GREB1","50 nM, 48 h, unit not given, added: estradiol",baseline: untreated,mRNA level,0.588 and 0.729 and 0.839
Oc1cc(O)cc(-c2cc3ccc(O)cc3o2)c1,"cell growth, MTT","12.5 µg/mL, 48 h",,cell survival,75.3 ± 0.82%
Cn1cncc1C1=CN(c2ncnc3[nH]cnc23)CCS1,,,,CC50,> 200 µM

# Repeated from above:
Compound,test,conditions,how to read,endpoint,value
CC(C)N1CCC(NC2CCN(c3cccc(-c4cc5cc(F)ccc5[nH]4)c3)CC2)CC1,,,,CC50,6.34 µM
CC(=NNC(=O)c1cccc(C)c1)c1ccc(NC(=O)Cn2c(=O)c3c(ncn3C)n(C)c2=O)cc1,"qRT-PCR, measured: IL-2","4.85 µM, 24 h",baseline: untreated,mRNA level,0.42 fold change
N.N.[Cl][Pt][Cl],,dark,baseline: IC50 MCF-10A over IC50 MCF7,selectivity ratio,1.7
